Measured values gathered from unrelated publications.
“And” joins repeats or separate records; there may be more than shown. ± marks the error that the study gave.

COc1c(N2C[C@@H]3CCCN[C@@H]3C2)c(F)cc2c(=O)c(C(=O)O)cn(C3CC3)c12
QTcI change from baseline (healthy volunteers; oral, 400 mg single dose, day 5, 2.00 h): 3.9 ms

N[C@@H](C[18F])C(=O)O
radiochemical purity (radio-TLC; mouse serum; 2 h): ≥ 93%

COc1cc(C)c(-c2c(C)cc(OC)c3c(=O)cc(-c4ccc(N(C)C)cc4)oc23)c2oc(-c3ccc(N(C)C)cc3)cc(=O)c12
purity (reverse phase HPLC; DMSO; 25 mg/mL, 24 h, 40 °C): 96%

CCc1nc(C(N)=O)c(Nc2ccc(N3CCC(N4CCN(C)CC4)CC3)c(OC)c2)nc1NC1CCOCC1
AUC(0-24) (Japanese patients, plasma; oral, 120 mg, cycle 0 day -2, single dose, mean): 3340 ng·h/mL

Cc1ccc(Sc2ccccc2N2CCNCC2)c(C)c1
participants with TEAE (refers to: Somnolence; healthy adult men; oral, 2.5 mg single dose): 0%

O=C1NCCc2nc(OCc3cccc(F)c3)ccc21
Irwin test score (refers to: Miosis; Sprague-Dawley rat male; oral, 100 mg/kg, 0 min; reference: baseline, direction not given): 0

CC(C)[C@H](NC(=O)[C@H](Cc1ccccc1)NC(=O)[C@H](CCCCN)NC(=O)[C@H](CCCCN)NC(=O)[C@H](C)NC(=O)[C@H](CO)NC(=O)[C@H](CCCCN)NC(=O)[C@]1(C)CCCC=CCCC[C@](C)(NC(=O)CN)C(=O)N[C@@H](CCCCN)C(=O)N[C@@H](CCCCN)C(=O)N[C@@H](Cc2ccccc2)C(=O)N1)C(=O)N[C@@H](CCCCN)C(=O)N[C@@H](C)C(=O)N[C@@H](Cc1ccccc1)C(=O)N[C@@H](CCCCN)C(N)=O
retention time (UPLC; TFA water/acetonitrile gradient; longer = more hydrophobic): 2.12 min

CCn1cc(C(=O)N2CCOCC2)c(=O)c2cc(NC3Cc4ccccc4C3)cnc21
AUC(0-12h) (human overall, fed, plasma; oral, 900 mg twice daily, day 7, tablet, arithmetic mean): 49400 ng·h/mL

C[C@@H](Oc1ccc(S(C)(=O)=O)cc1C(=O)N1C[C@@H]2C[C@]2(c2cc(C(F)(F)F)on2)C1)C(F)(F)F
Vz/F at steady state (young humans, plasma; oral, 50 mg once daily, multiple dose, geometric mean): 412 L

CC(C)[C@@H](CN1CC[C@@](C)(c2cccc(O)c2)[C@@H](C)C1)NC(=O)[C@H]1Cc2ccc(O)cc2CN1
AUCtotal (Sprague-Dawley rat, brain; intraperitoneal, 3 mg/kg): 7970 ng·h/g

[18F]c1ccc(-c2ccc3c(c2)[nH]c2ccncc23)cn1
SUV (ex vivo biodistribution; B6SJL mouse, normal, bone; intravenous, 30 min): 0.903 ± 0.19

CNC(=O)c1ccc(-c2cnc3ncc(Cc4ccc5ncccc5c4)n3n2)cc1F
subjects with adverse event (healthy human subjects; oral, 400 mg, Headache, all grades, all causality, with: rifampicin 600 mg/day): 11.5%

Cc1nc2cccc(OCC(C)(C)C(=O)NC(C)C)c2c(N)c1C(=O)O
micronucleated polychromatic erythrocytes (male Swiss albino CD-1 mouse, bone marrow; oral, 2000 mg/kg, 24 h): 0.04%

CNC(=O)c1ccc(-c2cnc3ncc(Cc4ccc5ncccc5c4)n3n2)cc1F
patients with adverse event (refers to: Anemia; other cancer patients; oral, 600 mg twice daily, expansion cohort, grade 3-4): 6%

CCn1c(=O)c2c(nc(/C=C/c3ccc(OC)c(OC)c3)n2C)n(CC)c1=O
purity (HPLC; solution; after 1 h light exposure): 63.1%

C=CCN1CC(=O)N2[C@@H](Cc3ccc(O)cc3F)C(=O)N(Cc3cccc(N4CC(N5CCN(CC)CC5)C4)n3)C[C@@H]2N1C(=O)NCc1ccccc1
treatment-related nausea (advanced solid tumour patients; oral, 20 mg twice daily, grade ≥3, dose-escalation): 0%

CC(C)(C(=O)N1CCOc2c(C#N)cncc2C1)C(F)F
subjects with contact dermatitis TEAE (human, both sexes; oral, 40 mg single dose): 16.7%

O=C(Nc1nc2cccc(-c3ccc(CN4CCS(=O)(=O)CC4)cc3)n2n1)C1CC1
treatment-emergent adverse events (refers to: hypertension; human rheumatoid arthritis patients; oral, 300 mg once daily, 4 weeks, regardless of relatedness): 0%

CCCC1CCC(C2CCC(c3cc(F)c(F)c(F)c3)CC2)CC1 (stereo not drawn)
fetal accumulation (rat, fetus; 5000 ng/mL in perfusate, high dose, mixture of 21 LCMs): 3.98 ± 1.78 ng/g

CCO[C@H]1CCN(Cc2c(OC)cc(C)c3[nH]ccc23)[C@H](c2ccc(C(=O)O)cc2)C1
incidence of haematuria (PNH patients, active haemolysis; oral, 50 mg, 4 weeks, treatment): 0%

Cc1ccc([C@@H]2O[C@H](CO)[C@@H](O)[C@H](O)[C@H]2O)cc1Cc1ccc(-c2ccc(F)cc2)s1
urinary phosphate excretion change (refers to: inorganic phosphorus; Japanese type 2 diabetes patients; 400 mg, day 16, 24 h urine collection; reference: baseline): 36.1 mg

CC(C(=O)NCC(=O)NCC(CNC(=O)CNC(=O)C(C)N1CCN(CC(=O)[O-])CCN(CC(=O)[O-])CCN(CC(=O)[O-])CC1)(CNC(=O)CNC(=O)C(C)N1CCN(CC(=O)[O-])CCN(CC(=O)[O-])CCN(CC(=O)[O-])CC1)CNC(=O)CNC(=O)C(C)N1CCN(CC(=O)[O-])CCN(CC(=O)[O-])CCN(CC(=O)[O-])CC1)N1CCN(CC(=O)[O-])CCN(CC(=O)[O-])CCN(CC(=O)[O-])CC1.[Gd+3].[Gd+3].[Gd+3].[Gd+3] (stereo not drawn)
cumulative urinary excretion (ICP-MS; cynomolgus monkey; dose not given, 5 d, mass balance group; reference: dose): 100%

CC[C@H](C)CCCCC(=O)N[C@@H](CCN)C(=O)N[C@H](C(=O)N[C@@H](CCN)C(=O)N[C@H]1CCNC(=O)[C@H]([C@@H](C)O)NC(=O)[C@H](CCN)NC(=O)[C@H](CCN)NC(=O)[C@H](CC(C)C)NC(=O)[C@@H](Cc2ccccc2)NC(=O)[C@H](CCN)NC1=O)[C@@H](C)O
urinary excretion (human, normal renal function, urine; intravenous, 0.75 mg/kg, 0-6 h, arithmetic mean): 1.67%

NC1(C(=O)N[C@@H](CCO)c2ccc(Cl)cc2)CCN(c2nc[nH]c3nccc2-3)CC1
incidence of Pyrexia (metastatic CRPC patients; 480 mg b.i.d., any grade, treatment-related, with: enzalutamide 160 mg daily): 0%

C=CC[C@@]1(C)NC(=O)CNC(=O)[C@H](Cc2c[nH]c3ccccc23)NC(=O)[C@H](CC(=O)O)NC(=O)[C@H](CCC(N)=O)NC(=O)[C@H](Cc2c[nH]c3ccccc23)NC(=O)[C@H](C(C)C)NC(=O)[C@@H](NC(=O)[C@@H](NC(C)=O)[C@@H](C)CC)CSSC[C@@H](C(=O)N[C@H](C(N)=O)[C@@H](C)O)NC(=O)[C@H](CCCNC(=N)N)NC(=O)[C@H](Cc2c[nH]cn2)NC1=O
retention factor (isocratic RP-HPLC, C18; 32% acetonitrile, phosphate pH 7.4, 1% TFA; 25 °C): 1.366 ± 0.006

COc1ccc2c(=O)n(C)c(-c3ccccc3)nc2c1
tissue/plasma ratio (Sprague-Dawley rat, male, spleen; oral, 30 mg/kg, 0.25 h; reference: spleen over plasma): 5.99

CCOc1c([C@H](C)n2nc(C)c3c(N)ncnc32)cc(Cl)c(F)c1[C@@H]1CNC(=O)C1
Vz/F per body weight (LC-MS/MS; Japanese patients, plasma; oral, dose not given, steady state, cycle 1 day 15): 0.53 L/kg

O=C(O)CCC(=O)O.[2H]C([2H])([2H])Oc1cc(C)c2[nH]ccc2c1CN1CC[C@@H](C2CC2)C[C@H]1c1ccc(C(=O)O)cc1
Tmax (human, plasma; 100 mg twice daily, day 1, multiple ascending dose, median): 3.5 h

CCN1/C(=C/C(C)=O)Sc2ccc(F)cc21
mean blood pressure change (cynomolgus monkey; oral, 100 mg/kg, 24 h post-dose; reference: pre-dose): 96.7 ± 7.8%

Cc1nc(-c2ccc(OCC(C)C)c(C#N)c2)sc1C(=O)O
body weight (KM mouse, chronic hyperuricaemia model; dose not given, day 30): 46 g and 40 g and 35.6 g and 43.4 g and 37.6 g

CCN1CCN(Cc2ccc(NC(=O)c3ccc(C)c(NC(=O)c4cncc(-c5cccs5)c4)c3)cc2C(F)(F)F)CC1
mean residence time (C57BL/6 mice, epithelial lining fluid; intraperitoneal, 10 mg/kg): 2.92 h

CCn1c(=O)c(-c2cc(NC(=O)Nc3ccccc3)c(F)cc2Br)cc2cnc(NC)cc21
participants with grade ≥ 3 TEAE (refers to: lipase increased; human, severe hepatic impairment; oral, 50 mg single dose): 25%

CN1CCC(COc2cnc(-c3cccc(Cn4nc(-c5cccc(C#N)c5)ccc4=O)c3)nc2)CC1
dose-adjusted solubility (FaSSIF; literature solubility over dose): 0.00243 mL⁻¹

C[C@@H]1COCCN1c1cc(C2([S@](C)(=N)=O)CC2)nc(-c2cc[nH]c3nccc2-3)n1
Rash incidence (Japanese advanced solid tumour patients; oral, 240 mg twice daily, CTCAE grade ≥3): 0%

COc1cc(Nc2ncc3c(n2)-c2ccc(Cl)cc2C(c2c(F)cccc2OC)=NC3)ccc1C(=O)O
decreased white cell count incidence (patients; oral, dose not given, grade 2, any attribution, with: pembrolizumab): 29%

OC[C@H]1O[C@@H](c2ccc(Cl)c(Cc3ccc(O[C@H]4CCOC4)cc3)c2)[C@H](O)[C@@H](O)[C@@H]1O
change in Potassium (Japanese type 1 diabetes patients, blood; 25 mg, day 28; reference: baseline): -0.1 mEq/L

CCCCCN1C[C@H](O)[C@@H](O)[C@H](O)[C@@H]1CO
mean brain concentration (LC-MS/MS; Hexb-/- mice, total, brain; 300 mg/kg/day): 282 ng/g

CNCc1ccc(-c2[nH]c3cc(F)cc4c3c2CCNC4=O)cc1
abdominal distension incidence (patients; oral, 240 mg twice daily, all grades): 0%

CCCC1CCC(c2ccc(-c3ccc(F)c(F)c3)cc2)CC1 (stereo not drawn)
fetal accumulation (Sprague-Dawley rat, female, fetus; 5000 ng/mL in perfusate, 50 (unit not given), high dose, mixture of 21 LCMs): 1.23 ± 1.71 ng/g

Cl.[2H]C([2H])([2H])CC(=O)c1cnc(NC(=O)C2CC2)cc1Nc1cccc(-c2ncn(C([2H])([2H])[2H])n2)c1OC
Cmax (geometric mean; human; oral, 20 mg twice daily, day 1, fed, liquid, multiple dose): 125 ng/mL

Cc1cc(-c2nccc3c2ccn3CC(=O)Nc2ccc(-c3cnccn3)cn2)ccn1
terminal half-life (human, plasma; oral, 20 mg once daily, day 1, geometric mean): 10.7 h

CC(=O)N[C@@H](CC(N)=O)C(=O)N[C@@H](CCCNC(=N)N)C(=O)N[C@@H](CC(C)C)C(=O)N[C@H]1CSSC[C@@H](C(=O)N[C@H](C(N)=O)[C@@H](C)O)NC(=O)[C@H](CCCNC(=N)N)NC(=O)[C@H](Cc2c[nH]cn2)NC(=O)[C@H](C)NC(=O)CNC(=O)[C@H](Cc2c[nH]c3ccccc23)NC(=O)[C@H](CC(=O)O)NC(=O)[C@H](CCC(N)=O)NC(=O)[C@H](Cc2c[nH]c3ccccc23)NC(=O)[C@H](C(C)C)NC1=O
retention factor (isocratic RP-HPLC, C18; 32% acetonitrile, phosphate pH 7.4, 1% TFA; 25 °C): 0.541 ± 0.011

Cn1cc(Nc2nccc(-c3ccc4c(c3)CN(C3COC3)CC[C@H]4NC(=O)c3cn(C(C)(C)C)nn3)n2)cn1
percent change from baseline (refers to: naive B cell count; human, clinical trial, whole blood; 50 mg twice daily, follow-up): 6.1%

Cc1nn(CC(F)(F)F)cc1Nc1nccc(NCCCNC(=O)C2CCC2)n1
effective permeability (PAMPA; PBS; 5 h, pH 7.4): 2.39 ×10⁻⁶ cm/s

O=C1Nc2ccc(Cl)cc2[C@@](C#CC2CC2)(C(F)(F)F)O1
trough plasma concentration (human, plasma; oral, 600 mg, day 28, median): 2460 ng/mL

C=CC(=O)Nc1cc(Nc2nccc(-c3cn(C4CC4)c4ccccc34)n2)c(OC)cc1N(C)CCN(C)C
creatinine (BALB/c nude mice, LU0387 xenograft, serum; oral, 40 mg/kg): 4.68 ± 0.436 µmol/L

Cc1ccc(C(=O)N(CCCN)C(c2nc3snc(C)c3c(=O)n2Cc2ccccc2)C(C)C)cc1 (stereo not drawn)
patients with adverse events (refers to: Dysphagia; human patients; intravenous, 16 mg/day, CTCAE grade ≥3): 0%

CCc1cc(C(=O)NC)c2nccc(N3CCc4c(cc(Cn5ccnc5)cc4-c4cn(C)nc4C(F)(F)F)C3=O)c2c1
body weight (Sprague Dawley rat; oral, 100 mg/kg twice daily, day 7, 7-day toxicology study): 243 ± 7 g

Repeated from above:
Cl.[2H]C([2H])([2H])CC(=O)c1cnc(NC(=O)C2CC2)cc1Nc1cccc(-c2ncn(C([2H])([2H])[2H])n2)c1OC
Cmax (geometric mean; human; oral, 20 mg twice daily, day 1, fed, liquid, multiple dose): 125 ng/mL

CN1CCC(COc2cnc(-c3cccc(Cn4nc(-c5cccc(C#N)c5)ccc4=O)c3)nc2)CC1
dose-adjusted solubility (FaSSIF; literature solubility over dose): 0.00243 mL⁻¹

Cc1nc2cccc(OCC(C)(C)C(=O)NC(C)C)c2c(N)c1C(=O)O
micronucleated polychromatic erythrocytes (male Swiss albino CD-1 mouse, bone marrow; oral, 2000 mg/kg, 24 h): 0.04%

CCCC1CCC(C2CCC(c3cc(F)c(F)c(F)c3)CC2)CC1 (stereo not drawn)
fetal accumulation (rat, fetus; 5000 ng/mL in perfusate, high dose, mixture of 21 LCMs): 3.98 ± 1.78 ng/g

C[C@@H]1COCCN1c1cc(C2([S@](C)(=N)=O)CC2)nc(-c2cc[nH]c3nccc2-3)n1
Rash incidence (Japanese advanced solid tumour patients; oral, 240 mg twice daily, CTCAE grade ≥3): 0%

CC(C)[C@@H](CN1CC[C@@](C)(c2cccc(O)c2)[C@@H](C)C1)NC(=O)[C@H]1Cc2ccc(O)cc2CN1
AUCtotal (Sprague-Dawley rat, brain; intraperitoneal, 3 mg/kg): 7970 ng·h/g

CCN1CCN(Cc2ccc(NC(=O)c3ccc(C)c(NC(=O)c4cncc(-c5cccs5)c4)c3)cc2C(F)(F)F)CC1
mean residence time (C57BL/6 mice, epithelial lining fluid; intraperitoneal, 10 mg/kg): 2.92 h

OC[C@H]1O[C@@H](c2ccc(Cl)c(Cc3ccc(O[C@H]4CCOC4)cc3)c2)[C@H](O)[C@@H](O)[C@@H]1O
change in Potassium (Japanese type 1 diabetes patients, blood; 25 mg, day 28; reference: baseline): -0.1 mEq/L
